Published values pooled from the literature.
Each numbered part is a random draw from the data of one study; scales do not carry over between parts. Positions count from the first letter of the parent shown.

Block 1 — technique: protein-binding microarray; form: double-stranded DNA, one strand shown; matrix: in vitro; tested at: not given; reading: higher = stronger binding
Target: Transcriptional repressor CTCF (CTCF, Homo sapiens, UniProt P49711, residues 1-727, full length assumed)
Notes: k-mer, scored over probes, only values ≥0.25
Construct (chain): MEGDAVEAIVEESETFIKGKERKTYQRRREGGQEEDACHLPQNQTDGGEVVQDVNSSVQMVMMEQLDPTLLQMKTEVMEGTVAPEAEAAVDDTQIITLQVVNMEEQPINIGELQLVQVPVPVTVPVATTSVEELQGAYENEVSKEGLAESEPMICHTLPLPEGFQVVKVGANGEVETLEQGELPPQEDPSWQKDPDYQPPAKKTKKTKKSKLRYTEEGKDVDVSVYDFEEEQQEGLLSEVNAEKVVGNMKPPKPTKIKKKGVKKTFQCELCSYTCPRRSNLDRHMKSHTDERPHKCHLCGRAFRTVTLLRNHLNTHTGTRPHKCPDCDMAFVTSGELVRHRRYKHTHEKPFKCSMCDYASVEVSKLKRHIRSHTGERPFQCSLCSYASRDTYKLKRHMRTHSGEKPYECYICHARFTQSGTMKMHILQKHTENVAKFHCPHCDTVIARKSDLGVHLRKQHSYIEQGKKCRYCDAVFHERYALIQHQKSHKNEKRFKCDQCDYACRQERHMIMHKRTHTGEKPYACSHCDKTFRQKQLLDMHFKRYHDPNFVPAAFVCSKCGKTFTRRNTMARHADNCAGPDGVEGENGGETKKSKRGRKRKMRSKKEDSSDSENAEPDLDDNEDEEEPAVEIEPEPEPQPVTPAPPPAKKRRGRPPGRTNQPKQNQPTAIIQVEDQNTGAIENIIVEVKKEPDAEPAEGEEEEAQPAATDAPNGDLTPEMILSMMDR
| Strand | E-score |
| --- | --- |
| GATGGCGC | 0.31 |
| AGAATTTA | 0.287 |
| CATATTTA | 0.324 |
| ACCAATTA | 0.256 |
| TTAGATAA | 0.256 |
| ATCGTAAT | 0.258 |
| CAAACATA | 0.285 |

Block 2 — target: CCNF, cyclin fold, Cln2 fusion (human); technique: yeast growth competition, sequencing; matrix: yeast; notes: strong parent motif; relative to: not given; reading: higher = stronger binding
Starting sequence: INSM1 docking peptide (human); PKAIRKLHFEDEV
| Substitution | normalised enrichment score |
| --- | --- |
| E10W | 7.75 |
| K2F | 7.29 |
| R5C | 1.91 |
| E10G | 7.94 |
| L7I | 3.68 |

Block 3 — technique: RNA Bind-n-Seq; form: RNA; matrix: in vitro; tested at: 200 nM; notes: whole 134-nt RNA, ends assumed; together with: 150 mM KCl; relative to: input library; reading: higher = stronger binding
Target: Fragile X messenger ribonucleoprotein 1, C-terminal low-complexity region (Fmr1, Mus musculus, UniProt P35922)
All sequences stand within: GGGAGUUCUACAGUCCGACGAUC … UGGAAUUCUCGGGUGUCAAGG
| Strand | log2 enrichment |
| --- | --- |
| UUCGACGGCGCCGGGCGAGUGGCUGUUGAGCGGCGCCGCGGGAGUUCCGCAGGUUUCCCGUGUUCGCAGCGGAGCCGGAGGCCAGCUGAA | -2.46 |
| UGAAGACACAGCAUCCACCCGAUCUUCAUUCACUGUCCAAGACCUUAAACCUUUUACAGAAUAUGUGUUUAGGAUUCGCUGUAUGAAGGA | 0.179 |
| UGGCCCUGGUGGCAUGCGGGGAGGAAGAGGUGGCCUCAUGGUUCGUGGUGGUCCCGGUGGAAUGUUCAGAGGUGGCCGUGGUGGAGACAG | -0.00585 |
| GUCCUGUGCUACACAUCGUAUGUACCGAAUCAAAUUUAAAUUUUUAAAUUUUUUUAAAAAAGUAUUAUGUUACGCCGUUCGGAUCUGCAC | -1.31 |
| UCCUCAAGUCCUGUGCUACACAUCGUAUGUACCGAAUCGGAGGGAGGGAGGAAAGUAUUAUGUUACGCCGUUCGGAUCUGCACUUCCAGC | -0.254 |
| CACAGACAACACGCACCCACACAGACACAGAGGGAAGGGGUUGGGAUGGGGACAGGGUGCACAGCAGGACGGGGUAGGACCCCAGCCCCU | 1.29 |
| UUCUAUUUCUUUCCUUAAUGUUUUUUUCUUCCCUACUGUUUUAUCCUCCCUUUGCUUUGGAAGGAUAUUGCUGCAUAUCGAGCUAAAGGA | 0.0967 |

Other studies, line by line
| Molecule | target | test | test system | conditions | scale | endpoint | value |
| --- | --- | --- | --- | --- | --- | --- | --- |
| PhoQ, residues 284 288 289 292 302 303 ASVMEA | PhoP, residues 12 14 15 18 19 QYCSL (Escherichia coli, UniProt P23836) | Sort-seq, refers to: YFP reporter | E. coli | PhoQ-PhoP variant library, together with: 10 µM Mg2+ | relative to: high Mg2+ state, higher = stronger signaling | fold induction | 12.6 |
